# Experimental data from different studies.
# Each numbered part is a random draw from the data of one study; scales do not carry over between parts. Substitutions count along the parent as printed.

# Sample 1
# Target: Histone acetyltransferase KAT6A, winged helix 2, GST fusion (KAT6A, Homo sapiens, UniProt Q92794, residues 85-181)
# Technique: protein binding microarray
# Form: double-stranded DNA, one strand shown
# Sample: in vitro
# Concentration: not given
# Setting: 8-mer, flanks averaged, mean of 2 arrays, mostly near background
# Baseline: not given
# Reading: higher = stronger binding
# Target sequence (chain): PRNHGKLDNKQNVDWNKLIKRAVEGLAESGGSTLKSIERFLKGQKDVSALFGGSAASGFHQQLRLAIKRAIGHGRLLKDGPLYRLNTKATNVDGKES
Oligonucleotide,E-score
CCAACTAG,0.0571
AGCCCTGA,0.0449
GAGCAGGA,0.0326
AGCGCAGC,0.202
GCGAACTA,0.0104
GAAGCGCA,0.183
GCTCTCGA,0.0457
AGTATGCC,0.00874
CTCGTACC,-0.106

# Sample 2
# Target: Fragile X messenger ribonucleoprotein 1, C-terminal low-complexity region (Fmr1, Mus musculus, UniProt P35922)
# Technique: RNA Bind-n-Seq
# Form: RNA
# Sample: in vitro
# Concentration: 200 nM
# Setting: whole 134-nt RNA, ends assumed
# With: 150 mM LiCl
# Baseline: input library
# Reading: higher = stronger binding
# Each molecule: 7-deaza-guanosine replaces G
# Shared flanks, not repeated: GGGAGUUCUACAGUCCGACGAUC … UGGAAUUCUCGGGUGUCAAGG
Oligonucleotide,log2 enrichment
UAACUUUAGAGGAGGAUCUGAUGGAUAUGGCAGUUGACGUGGAUUUGGGGAUGGCUAUAAUGGGUAUGGAGGAGGACCUGGAGGUGGCAA,0.166
CUCAAGUCCUGUGCUACACAUCGUAUGUACCGAAUCGGUGGAAAAAGGAAAGGAAAGUAUUAUGUUACGCCGUUCGGAUCUGCACUUCCA,0.238
CAAGUCCUGUGCUACACAUCGUAUGUACCGAAUCGGGAAAAAGGGAGGGAAAGGGAAAGUAUUAUGUUACGCCGUUCGGAUCUGCACUUC,-0.538
AGUCCUGUGCUACACAUCGUAUGUACCGAAUCGGGGAAAAAGGGGUGGGGUUUGGGGAAAGUAUUAUGUUACGCCGUUCGGAUCUGCACU,-1.09
UCAAGUCCUGUGCUACACAUCGUAUGUACCGAAUCGGAGGAAAAAAAGGAAAGGAAAGUAUUAUGUUACGCCGUUCGGAUCUGCACUUCC,-0.882
UAACUUUAGAGGAGGAUCUGAUGGAUAUGGCAGUGGACGUGGAUUUGGGGAUGGCUAUAAGGGGUAUGGAGGAGGACCUGGAGGUGGCAA,0.484
AAGUCCUGUGCUACACAUCGUAUGUACCGAAUCGGAAAAAGGUUUUUUUGGAAAGGAAAGUAUUAUGUUACGCCGUUCGGAUCUGCACUU,-3.32
UGGGAGGUGGAUUUUGUUUAUUUUUUUAGCUCAUUUCCAGGGGUUGGAAUUUUUUUUUAAUAUGUGUCAUGAAUAAAGUUGUUUUUGAAA,-1.2

# Sample 3
# Target: CCND3, cyclin fold, Cln2 fusion (human)
# Technique: yeast growth competition, sequencing
# Sample: yeast
# Setting: weak parent motif
# Baseline: not given
# Reading: higher = stronger binding
# Parent: RBL1 docking peptide (human); GSAKRRLFGEDPP
Variant,normalised enrichment score
S2K,0.0858
K4F,0.132
A3I,0.015
G9D,0.176
F8S,0.105
L7M,0.155
R5G,0.0585
E10A,0.102
A3F,0.124
A3M,0.0951
A3L,0.0848
P12G,0.22

# Mixed results
Molecule,target,test,test system,conditions,scale,quantity,value
"PhoQ, residues 284 288 289 292 302 303 NLSRDF","PhoP, residues 12 14 15 18 19 VQALL (Escherichia coli, UniProt P23836)","Sort-seq, refers to: YFP reporter",E. coli,"PhoQ-PhoP variant library, with: 10 µM Mg2+","baseline: high Mg2+ state, higher = stronger signaling",fold induction,14.1

# Some of these lines once more (sample 2):
Oligonucleotide,log2 enrichment
AAGUCCUGUGCUACACAUCGUAUGUACCGAAUCGGAAAAAGGUUUUUUUGGAAAGGAAAGUAUUAUGUUACGCCGUUCGGAUCUGCACUU,-3.32
UGGGAGGUGGAUUUUGUUUAUUUUUUUAGCUCAUUUCCAGGGGUUGGAAUUUUUUUUUAAUAUGUGUCAUGAAUAAAGUUGUUUUUGAAA,-1.2
